Measured values from different studies.
Lines come from different studies, so protocols differ.

`O=C(/C=C/C=C/C=C/C1CCCCC1)NC1=C[C@@](O)(/C=C/C=C/C=C/C(=O)NC2=C(O)CCC2=O)[C@@H]2O[C@@H]2C1=O` gave a GI50 of 22 µM (KM12; cell growth, CellTiter-Glo; 78 h).
`CCCCN1CCN(c2ccc3[nH]c(-c4ccc5[nH]c(-c6ccc(C(F)(F)F)cc6)nc5c4)nc3c2)CC1` gave a growth percent of -88.3% (KM12; SRB; 10 µM, 48 h).
`O=C(Nc1nnc2n3c(nc(-c4ccc(Cl)cc4)c1-2)SCC3=O)c1ccccc1` gave a cell growth of 99.3% (KM12; SRB; 10 µM, NCI60 single-dose screen, colon cancer; reference: untreated).
For `NC1CCCNC1=O` (centres unmarked), “z-scored log2 fold change” read 0.236 (binding, equilibrium dialysis LC-MS; 5 µM, thermostabilized A2AR-BRIL construct; reference: no-protein control, direction not given).
`Cn1cncc1C1=CN(c2ncnc3[nH]cnc23)CCS1` has a GI50 of 14.1 µM (KM12; colon cancer).
`Cc1n[nH]c2nc(-c3ccc(Cl)cc3)c3c(NC(=O)c4ccccc4)nnc-3n12` gave a cell growth of 105% (KM12; SRB; 10 µM, NCI60 single-dose screen, colon cancer; reference: untreated).
The log TGI of `S=C([S][Au-][P+](CCCCCC[P+]([Au-][S]C(=S)n1cccn1)(c1ccccc1)c1ccccc1)(c1ccccc1)c1ccccc1)n1cccn1` is reported as -5.76 log10 M (KM12; cell growth, NCI-60 screen; colon cancer).
For `CCCN1CCN(c2ccc3nc(-c4ccc5nc(-c6cc(OC)ccc6OC)[nH]c5c4)[nH]c3c2)CC1`, the growth percent was 32.2% (KM12; SRB; 10 µM, 48 h).
`C#C[C@@]1(O)[C@@H](CO)O[C@@H](n2ccc3c(N)ncnc32)[C@@H]1O` gave a TGI of 10.9 µM (KM12; SRB; NCI-60 screen).
The cell growth of `O=C(Nc1nnc2n3c(=S)[nH][nH]c3nc(-c3ccc(Cl)cc3)c1-2)c1ccccc1` is reported as 97.9% (KM12; SRB; 10 µM, NCI60 single-dose screen, colon cancer; reference: untreated).
`CCCN1CCN(c2ccc3[nH]c(-c4ccc5[nH]c(-c6ccc(C(F)(F)F)cc6)nc5c4)nc3c2)CC1` has a growth percent of -86.4% (KM12; SRB; 10 µM, 48 h).
Under “z-scored log2 fold change”, `Nc1ncnc2c1ncn2[C@H]1C[C@H](O)[C@@H](CO)O1` is recorded as 0.508 (binding, equilibrium dialysis LC-MS; 5 µM, thermostabilized A2AR-BRIL construct; reference: no-protein control, direction not given).
For `C#C[C@@]1(O)[C@@H](CO)O[C@@H](n2cc(F)c3c(N)ncnc32)[C@@H]1O`, the TGI was 24.9 µM (KM12; SRB; NCI-60 screen).
With `O=C(Nc1nnc2n3c(Cc4ccccc4)n[nH]c3nc(-c3ccc(Cl)cc3)c1-2)c1ccccc1` the cell growth was 99.1% (KM12; SRB; 10 µM, NCI60 single-dose screen, colon cancer; reference: untreated).
`C#C[C@@]1(O)[C@@H](CO)O[C@@H](n2cc(Br)c3c(N)ncnc32)[C@@H]1O` gave a TGI of > 100 µM (KM12; SRB; NCI-60 screen).
With `CCCN1CCN(c2ccc3[nH]c(-c4ccc5[nH]c(-c6cc(OC)c(OC)c(OC)c6)nc5c4)nc3c2)CC1` the growth percent was 77% (KM12; SRB; 10 µM, 48 h).
`O=C1NCCc2[nH]c(-c3ccncc3)cc21` has an IC50 of 2.28 µM (KM12; MTS; colon cancer).
